Results gathered from unrelated publications.
Parts stem from different laboratories: compare values within a part only. Positions count from the first letter of the parent shown.

Series 1
Target: Sox-I, HMG box (Salpingoeca helianthica)
Method: Spec-seq
Form: double-stranded DNA, one strand shown
Sample: in vitro
Concentration: not given
Setting: whole probe, mean of replicates
Baseline: not given
Reading: lower = stronger binding
All sequences stand within: GAGTCGTCTCGTCAGCAC … CCGTAGAGCACTCAGGTC
Construct (chain): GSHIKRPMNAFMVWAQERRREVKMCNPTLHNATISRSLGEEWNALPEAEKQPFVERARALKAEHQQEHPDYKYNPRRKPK
Sequence	relative binding energy [ln ratio]
ATTCGTT	0.613
CATAAGC	0.501
AGCGGTT	0.491
CATAGAA	0.164
AGTAGTT	-0.232
CATTGAC	0.29
CATGTAC	0.668
CGTCGTT	0.677
GAAAGTT	1
CATGTAG	1.01
CTGGGTT	1.13
CATAAGT	0.454
CATAGGC	0.359
CATGAAT	0.773
TGCGGTT	0.72
AAACGTT	-0.374
CATAGAT	0.405
AACGGTT	-1.41
CGCAGTT	0.583
CTAGGTT	0.979
ACAGGTT	0.058
CATCTTG	0.653
GTCCGTT	0.889

Series 2
Target: Fragile X messenger ribonucleoprotein 1, C-terminal low-complexity region (Fmr1, Mus musculus, UniProt P35922)
Method: RNA Bind-n-Seq
Form: RNA
Sample: in vitro
Concentration: 200 nM
Setting: whole 134-nt RNA, ends assumed
Added: 150 mM LiCl
Baseline: input library
Reading: higher = stronger binding
All molecules: 7-deaza-guanosine replaces G
Sequence	log2 enrichment
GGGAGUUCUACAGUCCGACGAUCAAGUCCUGUGCUACACAUCGUAUGUACCGAAUCAAACCCCCAAACCCAAACCCAAAAAAGUAUUAUGUUACGCCGUUCGGAUCUGCACUUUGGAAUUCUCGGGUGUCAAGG	-0.185
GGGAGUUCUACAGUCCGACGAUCGCCAUGCAGGUGGGCAUCUUUGGGAAGUGGGGCAAGGGGGGGAUAGGGAGGGGGGUAACACUUUGGGAACAGGUGGUCCCAGGUCGUUUCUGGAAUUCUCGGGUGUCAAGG	1.36
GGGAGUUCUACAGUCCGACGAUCCUGUGCUACACAUCGUAUGUACCGAAUCGGGGAAAAAGGGGUUUUUUUGGGGUUUUUGGGGAAAGUAUUAUGUUACGCCGUUCGGAUCUGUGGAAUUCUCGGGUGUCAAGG	-1.81
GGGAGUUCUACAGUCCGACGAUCCUGUGCUACACAUCGUAUGUACCGAAUCGGGGUUUUUUUGGUUUUUUUGGGUUUUUUUGGGGAAAGUAUUAUGUUACGCCGUUCGGAUCUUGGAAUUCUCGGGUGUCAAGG	0.758
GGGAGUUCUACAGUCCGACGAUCCACAGACAACACGCACCCACACAGACACAGAGGGAAGGGGUUGGGAUGGGGACAGGGUGCACAGCAGGGCGGGGUAGGACCCCAGCCAAAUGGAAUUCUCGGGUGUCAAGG	-0.122
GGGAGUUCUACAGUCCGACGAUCCCUGUGCUACACAUCGUAUGUACCGAAUCGGGCCCCCCCGGGCCCCCCCGGCCCCCCCGGGAAAGUAUUAUGUUACGCCGUUCGGAUCUGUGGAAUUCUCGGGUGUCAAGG	0.483
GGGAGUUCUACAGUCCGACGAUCUUCAAAGCGUUCGAAUGAGGAGACUGAUGACUAUGGGAAGGCGCAGGUAGCCAAAAGCAGCAGCAAGGAAUCCAGGUCAUCCAAGCUCCAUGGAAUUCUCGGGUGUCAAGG	-1.14
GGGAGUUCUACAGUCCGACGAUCUGGCCCUGGUGGCAUGCGGGGAGGAAGAGGCGGCCUCAUGGAUCGUGGUGGUCCCGGUGGAAUGUUCAGAGGUGGCCGUGGUGGAGACAGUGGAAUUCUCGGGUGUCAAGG	-0.349
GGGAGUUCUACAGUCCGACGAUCUCUAUCCUGUCCCUCCACCCCACCCUCCACCUCAAUCCCCUCCCAUCUUCCCCAGACCUACCUCACCUACUAGGACCUGAGGCAGCUCCUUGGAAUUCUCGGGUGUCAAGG	1.58
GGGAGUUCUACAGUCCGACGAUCCCUGUGCUACACAUCGUAUGUACCGAAUCGGCCCCCCGGGGCCCCCCGGGGCCCCCCGGGGAAAGUAUUAUGUUACGCCGUUCGGAUCUGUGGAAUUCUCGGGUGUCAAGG	-2.99
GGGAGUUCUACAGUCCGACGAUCGUCCUGUGCUACACAUCGUAUGUACCGAAUCGGCCCCCCGGCCCCCCGGCCCCCCGGGAAAGUAUUAUGUUACGCCGUUCGGAUCUGCACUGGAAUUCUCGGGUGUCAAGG	1.32

Series 3
Target: CCNB3, cyclin fold, Cln2 fusion (human)
Method: yeast growth competition, sequencing
Sample: yeast
Setting: weak parent motif
Baseline: not given
Reading: higher = stronger binding
Starting sequence: MICAL3 docking peptide (human); LQLRRQLSFSEDS
Substitution	normalised enrichment score
LQLFRQLSFSEDS [R4F]	0.598
LQLKRQLSFSEDS [R4K]	0.0103
LQLRRQLSFSEHS [D12H]	0.2
LLLRRQLSFSEDS [Q2L]	0.318
LQLRRVLSFSEDS [Q6V]	0.924
LQLRRQLSWSEDS [F9W]	0.144
LQLRRQWSFSEDS [L7W]	0.15
LNLRRQLSFSEDS [Q2N]	0.125
LQLRRQLSFSSDS [E11S]	0.149
LQLRRPLSFSEDS [Q6P]	0.0997
LWLRRQLSFSEDS [Q2W]	0.243
LQLRRQLSFFEDS [S10F]	0.228
LQLRRQLSFMEDS [S10M]	0.185
LQLRRQLSFREDS [S10R]	0.354
LQLRRQPSFSEDS [L7P]	-0.0393
LQLRRQLSFSEPS [D12P]	0.337
LQLRRQLSFSEFS [D12F]	0.219
LQLRRQLGFSEDS [S8G]	-0.0041

Series 4
Target: RING finger protein unkempt homolog, zinc fingers 1-6, GST-SBP tag (UNK, Homo sapiens, UniProt Q9C0B0, residues 30-357)
UniProt Q9C0B0, sequence (30-357, looked up): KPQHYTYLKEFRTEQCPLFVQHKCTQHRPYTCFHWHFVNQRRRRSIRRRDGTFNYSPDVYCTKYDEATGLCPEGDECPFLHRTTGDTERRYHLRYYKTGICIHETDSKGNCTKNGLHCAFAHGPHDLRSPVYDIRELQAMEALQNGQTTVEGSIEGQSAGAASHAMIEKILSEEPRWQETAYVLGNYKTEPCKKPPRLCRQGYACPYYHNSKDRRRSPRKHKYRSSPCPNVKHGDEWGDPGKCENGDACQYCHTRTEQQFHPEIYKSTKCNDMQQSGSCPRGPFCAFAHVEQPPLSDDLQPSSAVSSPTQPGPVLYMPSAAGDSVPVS
Method: RNA Bind-n-Seq
Form: RNA
Sample: in vitro
Concentration: not given
Setting: RNA with constant flanks, human-mouse chimeric sites, ends assumed
Baseline: input RNA pool
Reading: higher = stronger binding
Sequence	bound/input enrichment
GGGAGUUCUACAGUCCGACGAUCCUGUGACUGAUGGCAGCUACCUGAGUGGCAGCUGAAGUUGACUCCCUCUCCUUGCCUGAACCCCCCCCCACUGCCCCCCCAUCCCCCAGUGUCGGCUAUUCUCUGGUCUCUGCACGGUUCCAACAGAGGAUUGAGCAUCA	1.32 ratio
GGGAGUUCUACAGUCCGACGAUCAUGGAGAAGGAUUCUCUGCCCCGCUUUGUGCGCUCUGAAUUUUAUAAGGAGCUAAUCAAGUAGUCAUUUAGCCAGGCUUCCAAAAGUUCCUGUGAGUGUUGAGUUACAUCCUUUGUAGCACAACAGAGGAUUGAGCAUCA	0.82 ratio
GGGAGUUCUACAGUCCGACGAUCAAAUCAUGUGUGUCCAAUAUUGAAAGUGCUUUAUCUACACUCCAGUAUGUAAGCAGUAUAGUAGUUUCUUUAGAGAAUAGGUCUGCCAUUGUAAAGUACAAUGCAAGCUUAGUCACUCCACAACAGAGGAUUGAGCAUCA	1.6 ratio
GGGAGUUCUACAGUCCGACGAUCAGAUUCCCUCUCUUAAAACCUCCUCCGAAAUUGGCAUCUCUUACAGAUGCCUCAUCCCCUGUUAGCGUUUUAGUUUGGACCACCCAGCCUUGGACAAUUCCCGCCAACCAGGCAAUUUGCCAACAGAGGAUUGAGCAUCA	0.71 ratio
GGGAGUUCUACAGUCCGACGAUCUGUAGUUUCUUGAUUUAUCAUUUUUCUUGCUCGGGUUAGAUCGUCAGGAAAAGCCUAAAGAUUAGGUUGUAAGAAAAACAGAAGCCAUGUUUCGAAGACCUGUGUUACAGGUAUUUCGUCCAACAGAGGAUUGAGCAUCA	0.351 ratio
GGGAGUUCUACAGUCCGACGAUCGUAAUGGACGUCAACACUGCUCUACAAGAGGUGCUGAAGACUGCCCUCAUCCACGAUGGCCUAGCACGUGGCAUACGCGAAGCUGCCAAAGCCUUAGACAAGCGCCAAGCCCAUCUUUGUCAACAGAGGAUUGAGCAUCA	0.0909 ratio
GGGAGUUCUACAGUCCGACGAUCGGACAUCUGUCAAAUUGUUAUGUUCCUAAAAACGUAGUGAACACUCUGAUACACUUCAUCUGCUUGUACAUCUGUAUGAUAGAGAAAUGUAAAUAUGUUAAUCCAAGAUGAAUUCAACUUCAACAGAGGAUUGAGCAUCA	0.251 ratio
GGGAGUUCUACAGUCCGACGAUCAGUGUGCAGGAAUUCAUGACCUUCACGAGUCAACUGAUUGUGGAACGCUCGGGGAAAGGCAGCAGAGCUUCUGUCAAAGAACAAGACUAUCUUUGCCAUGUCUACGUCCGGAGCGACAGUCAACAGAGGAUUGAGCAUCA	0.104 ratio
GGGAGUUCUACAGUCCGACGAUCGGUGGGGUGGUCAUUGCCGUUUGAGCUGCUGAUUUUCUUAUGAAUCACAUUCAGAACUCGUGUAGGGUUGACAAUGUGGGGGGGUGGGGGAUCCAGCUUAUUCUUUUAUUUUCAAGUCCACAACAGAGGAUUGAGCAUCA	0.855 ratio
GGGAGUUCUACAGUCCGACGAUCUAAGUCCUGUGCCAGCACUUCGCUCAUAAAGUUUUAAAUUCUGGACCAAUAGUGUUUGUUUCCUGAUUAUUGUAUCCAAUACUUUGCGUACUAUGUGACUCACUCUUCUGGAUAAAUAAACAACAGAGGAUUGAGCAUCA	1.88 ratio
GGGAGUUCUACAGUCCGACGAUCUGUGAACUGUCUCUUGAUUGGGGUCUACAAGAUGACUUUUCCUGGCACAUAUUCCAAAGCAAAGACUUUGUUACCUGCUGCUUAUUGUCUAAUUUACAGGGAUAUUUAAUUUUGUCAGGUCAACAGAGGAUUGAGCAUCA	0.3 ratio
